# Results pooled from the literature.
# Parts stem from different laboratories: compare values within a part only.
# UniProt P23443, sequence (whole entry, looked up): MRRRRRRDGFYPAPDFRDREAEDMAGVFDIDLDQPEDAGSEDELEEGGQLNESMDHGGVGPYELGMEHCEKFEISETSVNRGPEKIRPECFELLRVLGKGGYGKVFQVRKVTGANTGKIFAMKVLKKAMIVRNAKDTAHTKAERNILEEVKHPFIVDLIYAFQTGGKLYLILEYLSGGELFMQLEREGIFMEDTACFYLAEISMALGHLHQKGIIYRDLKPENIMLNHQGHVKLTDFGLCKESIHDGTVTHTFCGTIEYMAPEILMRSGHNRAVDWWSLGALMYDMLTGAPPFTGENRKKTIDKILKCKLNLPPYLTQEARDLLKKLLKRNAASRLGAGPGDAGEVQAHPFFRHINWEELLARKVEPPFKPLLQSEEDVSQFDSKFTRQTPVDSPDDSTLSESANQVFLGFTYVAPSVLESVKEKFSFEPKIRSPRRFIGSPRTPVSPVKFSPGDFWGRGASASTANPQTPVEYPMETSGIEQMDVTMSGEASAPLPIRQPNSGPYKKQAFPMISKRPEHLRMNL
# UniProt Q15375, sequence (whole entry, looked up): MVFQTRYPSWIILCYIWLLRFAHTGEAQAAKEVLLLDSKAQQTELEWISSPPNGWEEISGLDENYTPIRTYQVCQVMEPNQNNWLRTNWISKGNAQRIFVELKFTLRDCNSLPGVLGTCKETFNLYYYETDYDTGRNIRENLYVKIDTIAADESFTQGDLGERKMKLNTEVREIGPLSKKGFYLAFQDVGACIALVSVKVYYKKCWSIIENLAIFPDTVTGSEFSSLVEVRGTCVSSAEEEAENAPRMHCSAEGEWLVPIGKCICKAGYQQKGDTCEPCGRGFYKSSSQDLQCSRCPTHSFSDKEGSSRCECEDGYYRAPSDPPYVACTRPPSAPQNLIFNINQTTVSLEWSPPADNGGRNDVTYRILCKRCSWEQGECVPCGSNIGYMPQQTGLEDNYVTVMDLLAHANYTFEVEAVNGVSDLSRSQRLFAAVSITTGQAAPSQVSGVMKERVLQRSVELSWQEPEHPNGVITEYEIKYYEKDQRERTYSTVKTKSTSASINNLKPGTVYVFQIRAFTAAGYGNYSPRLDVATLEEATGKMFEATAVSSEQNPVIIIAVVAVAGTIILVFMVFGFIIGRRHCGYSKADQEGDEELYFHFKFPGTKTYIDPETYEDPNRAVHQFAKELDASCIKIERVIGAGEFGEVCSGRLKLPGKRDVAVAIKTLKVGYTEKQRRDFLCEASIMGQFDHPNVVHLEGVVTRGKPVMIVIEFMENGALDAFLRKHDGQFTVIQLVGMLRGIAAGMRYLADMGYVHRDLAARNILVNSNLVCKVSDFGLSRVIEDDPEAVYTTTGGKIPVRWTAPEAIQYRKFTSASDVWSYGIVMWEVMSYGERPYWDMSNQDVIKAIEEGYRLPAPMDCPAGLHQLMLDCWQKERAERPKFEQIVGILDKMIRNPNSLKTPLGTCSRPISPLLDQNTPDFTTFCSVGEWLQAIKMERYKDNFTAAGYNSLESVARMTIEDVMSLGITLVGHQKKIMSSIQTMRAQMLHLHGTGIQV
# UniProt Q15418, sequence (whole entry, looked up): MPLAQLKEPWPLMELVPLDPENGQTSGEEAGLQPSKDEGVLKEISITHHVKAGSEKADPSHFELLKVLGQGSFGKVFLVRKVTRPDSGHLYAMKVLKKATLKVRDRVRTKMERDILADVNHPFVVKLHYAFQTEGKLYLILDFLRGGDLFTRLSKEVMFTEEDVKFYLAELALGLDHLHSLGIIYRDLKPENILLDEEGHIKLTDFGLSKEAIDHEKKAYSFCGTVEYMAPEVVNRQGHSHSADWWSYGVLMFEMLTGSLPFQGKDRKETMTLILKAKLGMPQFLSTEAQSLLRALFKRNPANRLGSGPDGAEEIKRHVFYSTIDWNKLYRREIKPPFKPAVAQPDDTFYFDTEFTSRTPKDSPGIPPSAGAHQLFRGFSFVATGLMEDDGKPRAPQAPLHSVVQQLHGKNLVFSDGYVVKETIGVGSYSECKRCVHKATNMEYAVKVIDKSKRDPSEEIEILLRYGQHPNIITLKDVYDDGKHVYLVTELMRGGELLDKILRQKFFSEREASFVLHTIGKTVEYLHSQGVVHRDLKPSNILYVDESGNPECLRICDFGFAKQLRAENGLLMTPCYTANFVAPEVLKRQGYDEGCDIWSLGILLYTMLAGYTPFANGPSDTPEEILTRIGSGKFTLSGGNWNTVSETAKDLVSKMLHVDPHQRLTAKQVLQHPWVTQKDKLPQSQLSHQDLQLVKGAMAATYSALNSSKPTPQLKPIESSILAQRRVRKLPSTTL
# UniProt P31152, sequence (whole entry, looked up): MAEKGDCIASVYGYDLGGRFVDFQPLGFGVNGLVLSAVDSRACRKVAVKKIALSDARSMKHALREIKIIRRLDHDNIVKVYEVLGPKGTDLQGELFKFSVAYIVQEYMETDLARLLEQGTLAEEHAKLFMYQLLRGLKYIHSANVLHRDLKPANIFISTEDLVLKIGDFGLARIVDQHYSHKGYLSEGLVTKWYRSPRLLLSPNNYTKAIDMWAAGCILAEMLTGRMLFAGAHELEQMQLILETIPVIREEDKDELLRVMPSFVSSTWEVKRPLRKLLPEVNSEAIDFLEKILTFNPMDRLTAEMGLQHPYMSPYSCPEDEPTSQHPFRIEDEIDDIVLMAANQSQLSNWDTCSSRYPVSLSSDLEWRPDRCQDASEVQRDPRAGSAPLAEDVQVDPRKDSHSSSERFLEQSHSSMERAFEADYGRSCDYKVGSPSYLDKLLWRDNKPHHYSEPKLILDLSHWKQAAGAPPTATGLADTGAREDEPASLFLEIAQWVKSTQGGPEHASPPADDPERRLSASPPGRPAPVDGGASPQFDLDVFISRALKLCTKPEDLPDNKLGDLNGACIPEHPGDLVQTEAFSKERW
# UniProt P51813, sequence (whole entry, looked up): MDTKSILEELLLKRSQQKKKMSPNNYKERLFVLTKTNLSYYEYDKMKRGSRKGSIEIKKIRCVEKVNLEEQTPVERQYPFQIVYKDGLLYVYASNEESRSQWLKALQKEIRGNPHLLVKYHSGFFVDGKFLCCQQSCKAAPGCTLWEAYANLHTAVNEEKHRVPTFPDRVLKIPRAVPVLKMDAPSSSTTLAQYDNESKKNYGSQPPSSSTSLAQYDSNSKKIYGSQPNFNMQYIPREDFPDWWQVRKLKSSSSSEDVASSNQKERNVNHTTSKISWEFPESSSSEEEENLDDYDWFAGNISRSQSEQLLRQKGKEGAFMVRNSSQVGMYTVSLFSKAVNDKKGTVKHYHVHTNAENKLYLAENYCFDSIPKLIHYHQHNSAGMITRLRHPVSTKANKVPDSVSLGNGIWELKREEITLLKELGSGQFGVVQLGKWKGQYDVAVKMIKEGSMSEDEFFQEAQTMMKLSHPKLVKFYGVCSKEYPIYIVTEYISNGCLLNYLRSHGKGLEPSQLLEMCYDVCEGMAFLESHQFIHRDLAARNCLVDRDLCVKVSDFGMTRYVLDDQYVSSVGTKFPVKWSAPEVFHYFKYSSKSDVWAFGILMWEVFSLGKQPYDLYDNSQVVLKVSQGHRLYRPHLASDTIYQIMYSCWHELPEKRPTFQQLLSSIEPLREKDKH

# Block 1 — method: competition with immobilised ligand
# Structure (SMILES): Nc1c(C(=O)NCc2ccc(C(=O)NCCCC3CCCCC3)cc2)cnn1-c1ccccc1
target,read-out,concentration,remaining binding
"Receptor-type tyrosine-protein kinase FLT3 (FLT3, Homo sapiens, UniProt P36888)",cell-free assay,0.1 µM,90%
"Ribosomal protein S6 kinase alpha-1, C-terminal kinase domain (RPS6KA1, Homo sapiens, UniProt Q15418)",cell-free assay,0.1 µM,92%
"Cyclin-dependent kinase-like 2 (CDKL2, Homo sapiens, UniProt Q92772)",cell-free assay,0.1 µM,93%
"Mitogen-activated protein kinase 3 (MAPK3, Homo sapiens, UniProt P27361)",cell-free assay,0.1 µM,94%
"Ribosomal protein S6 kinase beta-1 (RPS6KB1, Homo sapiens, UniProt P23443)",cell-free assay,0.1 µM,100%
"Serine/threonine-protein kinase ULK3 (ULK3, Homo sapiens, UniProt Q6PHR2)",cell-free assay,0.1 µM,100%
"Ephrin type-A receptor 7 (EPHA7, Homo sapiens, UniProt Q15375)",cell-free assay,0.1 µM,100%
"Dual specificity protein kinase TTK (TTK, Homo sapiens, UniProt P33981)",cell-free assay,0.1 µM,100%
"Cyclin-dependent kinase 4, with cyclin D3 (CDK4, Homo sapiens, UniProt P11802)",cell-free assay,0.1 µM,100%
"Mitogen-activated protein kinase kinase kinase 4 (MAP3K4, Homo sapiens, UniProt Q9Y6R4)",cell-free assay,0.1 µM,81%
"Serine/threonine-protein kinase RIO3 (RIOK3, Homo sapiens, UniProt O14730)",cell-free assay,0.1 µM,100%
"Fibroblast growth factor receptor 3 (FGFR3, Homo sapiens, UniProt P22607)",cell-free assay,0.1 µM,100%
"Ribosomal protein S6 kinase alpha-3, C-terminal kinase domain (RPS6KA3, Homo sapiens, UniProt P51812)",cell-free assay,0.1 µM,92%
"Ribosomal protein S6 kinase alpha-5 (RPS6KA5, Homo sapiens, UniProt O75582)",binding,1 µM,23%
"Mitogen-activated protein kinase 4 (MAPK4, Homo sapiens, UniProt P31152)",cell-free assay,0.1 µM,100%
"Membrane-associated tyrosine- and threonine-specific cdc2-inhibitory kinase (PKMYT1, Homo sapiens, UniProt Q99640)",cell-free assay,0.1 µM,100%
"Cyclin-dependent kinase-like 3 (CDKL3, Homo sapiens, UniProt Q8IVW4)",cell-free assay,0.1 µM,97%
"Epidermal growth factor receptor (EGFR, Homo sapiens, UniProt P00533, T790M)",cell-free assay,0.1 µM,100%
"Calcium/calmodulin-dependent protein kinase type II subunit gamma (CAMK2G, Homo sapiens, UniProt Q13555)",cell-free assay,0.1 µM,100%
"Tyrosine-protein kinase ABL2 (ABL2, Homo sapiens, UniProt P42684)",cell-free assay,0.1 µM,100%
"Tyrosine-protein kinase ABL1, phosphorylated (ABL1, Homo sapiens, UniProt P00519)",cell-free assay,0.1 µM,97%
"Tyrosine-protein kinase ABL1, phosphorylated (ABL1, Homo sapiens, UniProt P00519, Y253F)",cell-free assay,0.1 µM,100%
"Receptor-type tyrosine-protein kinase FLT3, autoinhibited (FLT3, Homo sapiens, UniProt P36888)",cell-free assay,0.1 µM,100%
"Tyrosine-protein kinase Fgr (FGR, Homo sapiens, UniProt P09769)",cell-free assay,0.1 µM,100%
"Epidermal growth factor receptor (EGFR, Homo sapiens, UniProt P00533, G719S)",cell-free assay,0.1 µM,84%

# Block 2 — method: KINOMEscan; concentration: 10 µM; relative to: DMSO control; direction: lower = stronger binding
# Compound: COc1cc(C(=O)N2CCC(N3CCN(C)CC3)CC2)ccc1Nc1ncc2c(n1)N(C)c1ccccc1C(=O)N2C
target,binding [%]
CSF1R,98
ARK5,47
CDK2,100
DYRK1B,94
CLK4,54
ACVR1B,100
ZAP70,79
FRK,34
PIK3CD,62

# Block 3 — mode: antagonist
# Target: Beta-1 adrenergic receptor (ADRB1, Homo sapiens, UniProt P08588)
# UniProt P08588, sequence (whole entry, looked up): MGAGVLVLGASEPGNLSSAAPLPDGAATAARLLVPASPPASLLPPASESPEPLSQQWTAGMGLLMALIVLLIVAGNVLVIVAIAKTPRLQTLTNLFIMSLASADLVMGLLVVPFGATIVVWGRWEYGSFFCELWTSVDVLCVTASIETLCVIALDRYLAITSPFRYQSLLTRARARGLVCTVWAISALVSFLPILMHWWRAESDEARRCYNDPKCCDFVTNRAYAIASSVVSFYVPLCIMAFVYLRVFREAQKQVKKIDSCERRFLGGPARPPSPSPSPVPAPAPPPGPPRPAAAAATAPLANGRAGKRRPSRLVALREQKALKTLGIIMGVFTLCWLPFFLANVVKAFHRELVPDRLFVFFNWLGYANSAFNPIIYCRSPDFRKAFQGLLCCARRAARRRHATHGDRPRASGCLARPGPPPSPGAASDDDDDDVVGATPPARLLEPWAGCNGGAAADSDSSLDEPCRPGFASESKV
Compound,IC50
COc1ccccc1-c1cc(-c2ccsc2)c2onc(C)c2n1,≥ 100 µM
OC1(c2cccc(C(F)(F)F)c2)CCN(Cc2nc(-c3cccs3)no2)CC1,≥ 100 µM
CC(C)(O)c1cc(CC2(NCc3cnc4ccccc4c3)COC2)no1,≥ 100 µM
CCOc1cccc(C(=O)N2CCN(c3ccccc3OC)CCC2C)c1 (stereo not shown),≥ 100 µM
COc1cc(O)ccc1OCCNCC(O)COc1cccc2[nH]c3ccccc3c12 (stereo not shown),≥ 100 µM
COc1ccccc1N1CCC(N2C(=O)[C@H]3CCCN3C2=O)C1 (stereo partly shown),≥ 100 µM
COc1ccc(C(O)Cn2ccn3nc(-c4ccc(C(C)C)cc4)cc3c2=O)cc1 (stereo not shown),≥ 100 µM
Cc1[nH]c2ccc(C(=O)N3CCN(c4ccccc4Cl)CC3)cc2c1C,≥ 100 µM
Cc1cc2ncn(-c3ccc4ccccc4n3)c2cc1C,≥ 100 µM

# Block 4 — read-out: enzyme activity; mode: inhibitor; concentration: 0.5 µM; relative to: control
# Structure (SMILES): CC(C)c1nn(-c2c(Cl)cccc2Cl)c2nc(Cc3ccc(OCCO)cc3)[nH]c(=O)c12
target,remaining activity [%]
"Ephrin type-A receptor 7 (EPHA7, Homo sapiens, UniProt Q15375)",97.9
"Protein kinase C gamma type (PRKCG, Homo sapiens, UniProt P05129)",81.1
"Beta-adrenergic receptor kinase 1 (GRK2, Homo sapiens, UniProt P25098)",94.8
"Protein kinase C epsilon type (PRKCE, Homo sapiens, UniProt Q02156)",90.5
"NUAK family SNF1-like kinase 1 (NUAK1, Homo sapiens, UniProt O60285)",96.9
"Receptor-type tyrosine-protein kinase FLT3 (FLT3, Homo sapiens, UniProt P36888)",74.2
"Serine/threonine-protein kinase Sgk1 (SGK1, Homo sapiens, UniProt O00141)",118
"Ribosomal protein S6 kinase beta-1 (RPS6KB1, Homo sapiens, UniProt P23443)",94.8
"Cytoplasmic tyrosine-protein kinase BMX (BMX, Homo sapiens, UniProt P51813)",104
"Serine/threonine-protein kinase pim-2 (PIM2, Homo sapiens, UniProt Q9P1W9)",104
"Aurora kinase C (AURKC, Homo sapiens, UniProt Q9UQB9)",87.6
"G protein-coupled receptor kinase 6 (GRK6, Homo sapiens, UniProt P43250)",101
"Ephrin type-B receptor 2 (EPHB2, Homo sapiens, UniProt P29323)",92.5
"Fibroblast growth factor receptor 4 (FGFR4, Homo sapiens, UniProt P22455)",91.5
"Glycogen synthase kinase-3 alpha (GSK3A, Homo sapiens, UniProt P49840)",73.1
"SRSF protein kinase 3 (SRPK3, Homo sapiens, UniProt Q9UPE1)",92.9
"Macrophage colony-stimulating factor 1 receptor (CSF1R, Homo sapiens, UniProt P07333)",94.6
"Tyrosine-protein kinase CSK (CSK, Homo sapiens, UniProt P41240)",106
"Ribosomal protein S6 kinase alpha-1 (RPS6KA1, Homo sapiens, UniProt Q15418)",91.3
"Serine/threonine-protein kinase PAK 2 (PAK2, Homo sapiens, UniProt Q13177)",95.6
"Myosin light chain kinase, smooth muscle (MYLK, Homo sapiens, UniProt Q15746)",98.3

# Repeated from above (block 4):
target,remaining activity [%]
"Serine/threonine-protein kinase Sgk1 (SGK1, Homo sapiens, UniProt O00141)",118
"Aurora kinase C (AURKC, Homo sapiens, UniProt Q9UQB9)",87.6
"Serine/threonine-protein kinase PAK 2 (PAK2, Homo sapiens, UniProt Q13177)",95.6
"Beta-adrenergic receptor kinase 1 (GRK2, Homo sapiens, UniProt P25098)",94.8
